Experimental data pooled from the literature.
Parts stem from different laboratories: compare values within a part only. Substitutions count along the parent as printed.

Study 1 — method: DHFR PCA, deep sequencing; matrix: yeast; with: (+)-ABA 0.39 µM; relative to: wild-type fitted maximum; direction: higher = stronger binding; endpoint: relative binding score
Target: ABI1, truncated, D143A, DHFR fusion (Arabidopsis thaliana)
Setting: methotrexate growth selection, single substitutions
Parent: PYL1, truncated, DHFR fusion (Arabidopsis thaliana); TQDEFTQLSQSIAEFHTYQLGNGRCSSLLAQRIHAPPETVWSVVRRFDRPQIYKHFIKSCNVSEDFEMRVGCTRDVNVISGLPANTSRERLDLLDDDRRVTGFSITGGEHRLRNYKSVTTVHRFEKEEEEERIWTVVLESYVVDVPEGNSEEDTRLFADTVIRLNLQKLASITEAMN; partner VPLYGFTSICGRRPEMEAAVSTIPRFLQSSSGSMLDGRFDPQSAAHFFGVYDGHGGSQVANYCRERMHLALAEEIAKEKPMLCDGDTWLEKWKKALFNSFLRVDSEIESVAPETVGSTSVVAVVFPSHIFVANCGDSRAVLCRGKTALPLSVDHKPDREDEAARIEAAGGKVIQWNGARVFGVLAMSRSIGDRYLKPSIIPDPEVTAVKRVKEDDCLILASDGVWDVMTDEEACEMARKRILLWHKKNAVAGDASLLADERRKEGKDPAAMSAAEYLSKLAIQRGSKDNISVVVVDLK
L91K: -11%
R32I: 48.9%
G107S: 25.4%
M68E: -9.58%
I52C: 21.2%
H55I: 62.1%
D159K: -1.35%
V76D: -4.95%
R113A: 19.2%
S80Q: 2.79%
V161C: 49.1%
R45L: -6.53%
P37I: 9.2%
A175T: 35.2%
Q2V: 66.7%
Y18Q: -9.11%
E109N: 61.6%

Study 2 — method: protein-binding microarray; molecule type: double-stranded DNA, one strand shown; matrix: in vitro; tested at: 250 nM; setting: 60-bp whole probe; with: salmon DNA 0.4 mg/ml; relative to: random background probes; direction: higher = stronger binding; endpoint: log fluorescence; shared flanks, not repeated: GCCTAGCAC … GTCTTGATTCGCTTGACGCTGCTG
Target: Interferon regulatory factor 5, full length, phosphomimetic (IRF5, Homo sapiens, UniProt Q13568-2, residues 1-514, K96S/S451D/S453D/S456D/S462D)
GGCGAACTGGGGTTTCGAGACGTGCTA: 0.865 z-score
GAGGGTTTCCTTTTCCTGACGTGCTAG: 0.61 z-score
GACGATAGCAGTATCGAGACGTGCTAG: 2.27 z-score
GACGATTTCGGGTATCCAGACGTGCTA: 4.06 z-score
AAGACTTTGCTCTGTGCATAGGTGCTA: -0.222 z-score
CCCTTTCTCTCTGTGACACAGTGCTAG: 1.84 z-score
GACGGACTGGGGTTTAGGGACGTGCTA: -0.317 z-score
TTAGGACTGGGGTATCGGCTAGTGCTA: 0.374 z-score
GACGGTATCGACTATCTGGACGTGCTA: 2.51 z-score
GTCGGTTTCGGGACTGGGGACGTGCTA: 6.21 z-score
TAAGGTATCCTTATCCTTTAGTGCTAG: 0.0358 z-score
TGAGGTCTCCTTTTCCTTTAGTGCTAG: -0.229 z-score
TTAGGACTGGGTAGCGGTTAGTGCTAG: -0.621 z-score
TTAGGTATCGGGAATGGGTTAGTGCTA: 2.2 z-score
GCCGGTTTCGACACTGGGGACGTGCTA: 5.69 z-score
GACGATATGAGTATCGAGACGTGCTAG: 1.98 z-score
TTAGGATTGGACACTGGGTTAGTGCTA: -0.178 z-score
TTAGGTTTCGGTATCCGTTAGTGCTAG: 10.5 z-score
TTAGGTTTCGACCTTCGGTTAGTGCTA: 6.67 z-score
TTCTTTTCCATTTTGTGTTTGTGCTAG: 1.78 z-score
GACGGACTGAGTATCGAGACGTGCTAG: 1.3 z-score
GACGGACTGCGGACTGGGGACGTGCTA: -0.452 z-score

Study 3 — target: CCND1, cyclin fold, Cln2 fusion (human); method: yeast growth competition, sequencing; matrix: yeast; setting: strong parent motif; relative to: not given; direction: higher = stronger binding; endpoint: normalised enrichment score
Parent: INSM1 docking peptide (human); PKAIRKLHFEDEV; partner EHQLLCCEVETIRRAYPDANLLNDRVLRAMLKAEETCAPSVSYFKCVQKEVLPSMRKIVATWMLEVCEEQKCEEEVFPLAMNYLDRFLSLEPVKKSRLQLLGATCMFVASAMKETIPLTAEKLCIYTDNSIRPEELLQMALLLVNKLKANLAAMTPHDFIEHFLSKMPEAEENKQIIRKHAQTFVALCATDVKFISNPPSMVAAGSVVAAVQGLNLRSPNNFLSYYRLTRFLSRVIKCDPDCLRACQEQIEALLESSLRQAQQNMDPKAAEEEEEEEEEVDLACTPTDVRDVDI
PKYIRKLHFEDEV [A3Y]: 0.368
PKAIRPLHFEDEV [K6P]: 0.477
PKAIRKLHFKDEV [E10K]: 2.01
PKAFRKLHFEDEV [I4F]: 0.796
PKATRKLHFEDEV [I4T]: 1.73
PKAIRKLHFENEV [D11N]: 3.51
PKAIRKLHREDEV [F9R]: 0.0205
PKAVRKLHFEDEV [I4V]: 3.4
PKAIRKLHFEDGV [E12G]: 3.79
PKAIYKLHFEDEV [R5Y]: 1.15
PKAIRKLHAEDEV [F9A]: -0.396
PKAIRKLHFEQEV [D11Q]: 3.22
PKAIRKLHIEDEV [F9I]: -0.0118
PKAIRKLHFEDQV [E12Q]: 3.63
PKAIRKLHYEDEV [F9Y]: 1.5
PKAIRKLEFEDEV [H8E]: 5.12
PKAIRKLHFEDYV [E12Y]: 3.61
PRAIRKLHFEDEV [K2R]: 4.87
PKAIRKQHFEDEV [L7Q]: -0.0797
PKAIRKLHKEDEV [F9K]: -0.44
PKAGRKLHFEDEV [I4G]: 1.45
PLAIRKLHFEDEV [K2L]: 3.13
PKAIRKLIFEDEV [H8I]: 5.71

Study 4 — method: EMSA with sequencing; molecule type: double-stranded DNA, one strand shown; matrix: in vitro; tested at: 10 and 20 nM; relative to: negative control set to 0; direction: higher = stronger binding; endpoint: normalised bound fraction
Target: Hepatocyte nuclear factor 3-alpha (Foxa1, Mus musculus, UniProt P35582, residues 1-468, full length assumed)
Setting: whole designed probe, mean of two concentrations, ends assumed
Shared flanks, not repeated: GTGAGCGGTGCCCATTGATGGGGAAC … TTTCACTGGGATCGTGGGGAC
Construct (chain): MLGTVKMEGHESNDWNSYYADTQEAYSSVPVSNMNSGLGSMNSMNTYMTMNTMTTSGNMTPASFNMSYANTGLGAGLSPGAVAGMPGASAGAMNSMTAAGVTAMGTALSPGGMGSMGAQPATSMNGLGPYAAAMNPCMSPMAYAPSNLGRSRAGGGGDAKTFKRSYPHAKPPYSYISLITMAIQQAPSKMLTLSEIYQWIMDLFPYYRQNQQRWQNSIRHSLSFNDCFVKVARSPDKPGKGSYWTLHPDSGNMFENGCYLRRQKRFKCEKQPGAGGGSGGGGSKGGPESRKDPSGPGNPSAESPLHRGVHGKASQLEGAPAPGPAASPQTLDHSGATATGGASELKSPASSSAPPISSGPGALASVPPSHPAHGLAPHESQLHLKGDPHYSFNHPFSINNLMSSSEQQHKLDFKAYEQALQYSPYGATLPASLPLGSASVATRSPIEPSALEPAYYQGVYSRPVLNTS
TTTTTTAGTCTCACTAACTCCAAATCCCCCAAAACAGAAAATGATTCTGTAATTATAAGAGATATAATTTTTCTTCCCTTAGAAGAAGCAAGGTAAACAAGGAATATTGCTTTCTAAGAAATAAAGTATTTTCTTATGCTGGACAAATCATGTTTCCTTAACATAAAGAACTTTATAGTTACATGTAAATTAG: 0.255 ratio
CCACAGCTTCAATCATTTTCAGAGCCTGAGTTAGTCTACAAATGGGTTGAGAACACGTTTTTTTTTCACTCAGGCGAAAAGTCATTTCCAAAGTAAACAAAGACTTTAAACTGGGAATTAAGGGCAAGATCAGGGATGAGGAAGTTAATACCATATTGAAAAGTTCTAAGGAAGAAGGCCATGTAACGAGATA: 0.459 ratio
ATGTAACCATATGGTTCAAACCTGCGGGTCATATTTTATACACAAATGACTATGACAGGCAGTATTTTTGTGCTGACAAGTTGTATTTCATCCATGTTTACTTAGAATTCCATGCTATCATTAAAAGCTGAACAATAGAACTTTATCTTATTTTCACGCAAAAATTTCACTGAGTGTCCCTCTTATTAAAAAA: 0.27 ratio
TAATGTCTCCACATATGTTAAGTTTTATTCATATTAAGATAAAATCAACGTATGTAAAACATGGCCTATAAAATCTTGTAAAATCAGGTCCCTGTTTACATTAACCTGGGAGAAAAAGATGAATATTATCTACCTGCTATTATCCTGTCATTTTGTACGTGTTCTCTCAATCCAAACACTTTTACAGAACAGG: 0.191 ratio
ATCTTCCCCCTCTTCCTTGCCCCACCAGCTCACCTTCCCGGGTTATTTGCAGATAGGAAAATAAATAAAGCCGGCATTCGTTAACCCTCTTCTGGCGCAAACTGCTGTTTGCTCTGGATCTAACATGGTCCTTTGGCGACGCCAGGCTCCGGGAGAGCAAAGCACCGTGTCAGGGCCATGATCCGGGGTGGCC: 0.359 ratio
AACAAACAAATAAAACAACTAGTATGGAAGCTAGAATAATGTGATGCACCATTACACCAAATATTCAGTCTTAACATGGTTTTTAATATTATGTAAACATGGAAGGTATTGCCATTGTTCATATGATACAGAATCAATGGCACTCACAATCATCTGAATATATTGAAAAATGGCACCTTCAAATAAAAATTGT: 0.489 ratio
ATGTGGGAACTAATTGAGGACCATGTTTACAATGCGTACAAATCATAAATCAATTAGTACAAGGAAGAATCATATTGATTTACAAAAAGTATTTGTTTACATTGATACTGTCCATGTAAACTTTTTTCAATTCAAAAGAAACACATAGTTCTGTCATAAAGTAGATTTTCTATCCCTTTTATTTTCTGAGCTT: 0.456 ratio
ATCTTCCCCCTCTTCCTTGCCCCACCAGCTCACCTACGGGGGTTATTTGCACAAAGGAAAATAAATAAAGCCGGCATTCGTTAACGCAGTTCACGCGCATACTGCTGTTTGCTCTGCATGAATCATGGTCCTTACGCGAGGCGTGGCTCCGGGAGAGCAAAGCACCGTGTCAGGCGCATGATCCGGGGTGGCC: 0.388 ratio

Study 5 — method: RNA Bind-n-Seq; molecule type: RNA; matrix: in vitro; tested at: not given; relative to: input RNA pool; direction: higher = stronger binding; endpoint: bound/input enrichment
Target: RING finger protein unkempt homolog, zinc fingers 1-6, GST-SBP tag (UNK, Homo sapiens, UniProt Q9C0B0, residues 30-357)
Setting: RNA with constant flanks, human-mouse chimeric sites, ends assumed
Shared flanks, not repeated: GGGAGUUCUACAGUCCGACGAUC … CAACAGAGGAUUGAGCAUCA
Construct (chain): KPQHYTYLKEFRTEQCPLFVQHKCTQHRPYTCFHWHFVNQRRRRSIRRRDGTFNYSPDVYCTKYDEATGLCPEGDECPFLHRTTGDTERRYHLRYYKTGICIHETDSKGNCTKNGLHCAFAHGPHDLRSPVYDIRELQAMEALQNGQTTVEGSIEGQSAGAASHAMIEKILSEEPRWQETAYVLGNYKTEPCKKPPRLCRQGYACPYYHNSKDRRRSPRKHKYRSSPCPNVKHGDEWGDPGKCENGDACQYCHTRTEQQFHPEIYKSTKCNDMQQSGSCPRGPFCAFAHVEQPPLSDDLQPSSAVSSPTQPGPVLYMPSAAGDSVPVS
UCUUAACUUAUUCAUUUCUUAUUUUUAUAUAGCUAGAUAAAUAUUGUUAGUCUUAGACAAUAGCUCACAUCUUUACAGAAGCAUGCCCUCCCUGUCCAUUUGUCUUAUAACAUGACCCAG: 65.5 ratio
AAGGUGAUGACUAUGUUUGUACAGCGACAGGUAUUUUCGGAGAGCAAAGAUGAGAUUGCGUUAGUCCUCUAUGGCACAGAUGGCACUGAUAAUGCCCUUGCUGGCAAGGACCAGUAUCAG: 0.182 ratio
ACCAUUUUCGCGGUUCAGGCUUUGUGUUGUAUUUACUUACGGUAUUAAAUUAUUAUUCUGCUUAGCUUAUAAUAAGGAUAAUUGCAUUUAAAGAGGUGAUCACUGAAUACUCUGAAACUU: 0.46 ratio
AUAGAUGAAAUUGAUGUAGAUCAGGAAGGAAUUGCUGAAAUGAUCCUGGAUGAAAAUGCUAUUGCUCAGGUCCCACGCCCUGGCACAUCUUUGAAGCUCCCUGGAACUAACCAAACAGGA: 0.461 ratio
GGAUUCCGCUUCCGGUUCCGUUGGGCUAGCAAGCUCCCUGAGCUACGUGUCUCUACGCUCUCAAUCCGCCAUCCAACAAACAUGGAUCAGGUAAUGCAGUUUGUGGAGCCCAGCCGGCAG: 0.0582 ratio
UGACAAGGGCACUGCAGGGCCAUGCCUUUCUUGGACAUACAGAAAAAGCUGGGCAUCAGCCUGGACCGGCACUUUAUGUUCCUAAGCGCAGAACAGCCCUAUAAGAACGCCGCUCGGUGC: 0.0557 ratio
GCGGCAGAAUCAUGGAGGACAUAAUGCAGCUCCCCAAAGCGCGCGUCAACGCCAGCAUGUUACCACAGUAUAUCGACAAGCCUGUCUGCUUCGUGGGGAGGCUGGAAAAGAUUCAUCCCA: 0.162 ratio
